# Published values gathered from unrelated publications.
# Each line is one published result; not all experiments were run side by side. ± gives the spread as reported.
SMILES,assay,test system,conditions,half-life
CS(=O)(=O)n1cc2c(n1)CN([C@H]1CO[C@H](c3cc(F)ccc3F)[C@@H](N)C1)C2,,"healthy Japanese men, plasma","oral, 25 mg once weekly, day 15",82.5 h
COc1ccc([C@@H]2Sc3ccccc3N(CCN(C)C)C(=O)[C@@H]2OC(C)=O)cc1,,whole body,"oral, high dose, depuration phase",144 h
Cc1ccc(NC(=O)c2ccc(CN3CCN(C)CC3)cc2)cc1Nc1nccc(-c2cncc(-c3oncc3C)c2)n1,,"healthy volunteers, plasma","oral, 12.5 mg once daily, day 1, 7-day dosing, mean",13.1 h
N[C@@H](Cc1ccccc1)C(=O)OC[C@H]1O[C@@H](n2cc(F)c(=O)[nH]c2=O)C[C@@H]1O,,human small intestine homogenate,"pH 7.4, 37 °C, protein 1000 µg/mL",0.08 ± 0.0233 h
CC(C)C[C@H](NC(=O)[C@H](CO)NC(=O)[C@H](CO)NC(=O)[C@H](CC(C)C)NC(=O)[C@@H](NC(=O)[C@@H]1CCCN1C(=O)[C@H](Cc1c[nH]c2ccccc12)NC(=O)[C@H](Cc1ccc(O)cc1)NC(=O)[C@@H]1CCCN1C(=O)[C@H](CC(C)C)NC(=O)[C@H](Cc1ccc(O)cc1)NC(=O)[C@@H](N)CCCCN)C(C)C)C(=O)O,residual EphA4 binding inhibition,C2C12 conditioned medium,"100 µM, 37 °C",8 to 12 h
N[C@@H](Cc1c[nH]cn1)C(=O)N[C@@H](Cc1c[nH]c2ccccc12)C(=O)O,,mouse plasma,"500 ng/mL, up to 4 h, 37 °C",> 5 h
N[C@@H](Cc1ccccc1)C(=O)N[C@@H](Cc1ccc(O)cc1)C(=O)OC[C@H]1O[C@@H](n2cc(F)c(=O)[nH]c2=O)C[C@@H]1O,,human pancreas homogenate,"pH 7.4, 37 °C, protein 500 µg/mL",2.5 ± 0.448 h
CCN(C(=O)[C@H](Cc1ccccc1)NC(=O)CNC(=O)c1ccccc1)c1ccccc1,,human liver microsomes,"1 µM, pH 7.4, added: cobicistat 0.5 µM",> 2 h
[2H]c1c(C([2H])([2H])[2H])cn2c(C(=O)NC([2H])([2H])c3ccc(C(F)(F)F)cc3)c(C([2H])([2H])[2H])nc2c1[2H],,mouse liver microsomes,2 µM,0.3 h
CC[C@H]1OC(=O)[C@H](C)[C@@H](O[C@H]2C[C@@](C)(OC)[C@@H](O)[C@H](C)O2)[C@H](C)[C@@H](O[C@@H]2O[C@H](C)C[C@H](N(C)C)[C@H]2O)[C@](C)(O)C[C@@H](C)CN(C)[C@H](C)[C@@H](O)[C@]1(C)O,,whole body,"oral, high dose, depuration phase",1860 h
O=C1[C@@H](O)[C@@H]2OC[C@@H](O2)[C@H]1O,,sodium acetate buffer,"10 mM, pH 4.0, 70 °C, β-elimination",11 h
CCCc1ccc2c(c1)sc(=O)n2CCN1CCCCCC1,,rat liver microsomes,"1 µM, pH 7.4, 37 °C, added: NADPH",< 0.0167 h
Cc1ccc(N(C)C(=O)[C@H](Cc2ccccc2)NC(=O)CNC(=O)c2ccccc2)cc1,,mouse liver microsomes,"1 µM, pH 7.4, added: cobicistat 0.5 µM",0.567 h
CCOc1ccc(Cc2cc([C@@H]3S[C@H](CO)[C@@H](O)[C@H](O)[C@H]3O)c(OC)cc2C)cc1,,"Japanese type 2 diabetes patients, plasma","oral, 5 mg single dose, eGFR 45-59 mL/min/1.73 m^2",11.2 ± 2.68 h
CC[C@H](C)[C@H](NC(=O)[C@H](CCC(=O)O)NC(=O)[C@H](CO)NC(=O)[C@@H](NC(=O)[C@@H](N)CO)C(C)C)C(=O)N[C@@H](CCC(N)=O)C(=O)N[C@@H](CC(C)C)C(=O)N[C@@H](CCSC)C(=O)N[C@@H](Cc1cnc[nH]1)C(=O)N[C@@H](CC(N)=O)C(=O)N[C@@H](CC(C)C)C(=O)NCC(=O)N[C@@H](CCCCN)C(=O)N[C@@H](Cc1cnc[nH]1)C(=O)N[C@@H](CC(C)C)C(=O)N[C@@H](CC(N)=O)C(=O)N[C@@H](CO)C(=O)N[C@@H](CCSC)C(=O)N[C@@H](CCC(=O)O)C(=O)N[C@@H](CCCN=C(N)N)C(=O)N[C@H](C(=O)N[C@@H](CCC(=O)O)C(=O)N[C@@H](Cc1c[nH]c2ccccc12)C(=O)N[C@@H](CC(C)C)C(=O)N[C@@H](CCCN=C(N)N)C(=O)N[C@@H](CCCCN)C(=O)N[C@@H](CCCCN)C(=O)N[C@@H](CC(C)C)C(=O)N[C@@H](CCC(N)=O)C(=O)N[C@@H](CC(=O)O)C(=O)N[C@H](C(=O)N[C@@H](Cc1cnc[nH]1)C(=O)N[C@@H](CC(N)=O)C(=O)N[C@@H](Cc1ccccc1)C(=O)O)C(C)C)C(C)C,,"postmenopausal women, osteoporosis, plasma","subcutaneous, 56.5 µg once weekly",0.957 to 2.06 h
CCC(CC)COC(=O)[C@H](C)N[P@](=O)(OC[C@H]1O[C@@](C#N)(c2ccc3c(N)ncnn23)[C@H](O)[C@@H]1O)Oc1ccccc1,,CD-1 mouse liver microsomes,"1 µM, pH 7.4, added: NADPH",~0.0167 h
NC(=O)c1cnc2[nH]ccc2c1N[C@@H]1[C@@H]2CC3C[C@H]1C[C@@](O)(C3)C2,,"healthy Caucasian men, plasma","oral, 20 mg, single dose fasted",7.3 h
C/C=C1\NC(=O)[C@H]2CSSCC/C=C/[C@H](CC(=O)N[C@H](C(C)C)C(=O)N2)OC(=O)[C@H](C(C)C)NC1=O,,"advanced cancer patients, plasma","intravenous, 14 mg/m^2, geometric mean, added: rifampin 600 mg",8.3 h
C[C@@H](Oc1ccc(S(C)(=O)=O)cc1C(=O)N1C[C@@H]2C[C@]2(c2cc(C(F)(F)F)on2)C1)C(F)(F)F,,"healthy male volunteers, plasma","oral, 25 mg, geometric mean, added: itraconazole",222 h
COc1cc(C(=O)c2nc(-c3ccc(C)c(O)c3)ccc2F)cc(OC)c1OC,,human liver microsomes,"10 µM, pH 7.4, added: NADPH",~0.5 h
NC(=O)c1cnc2[nH]ccc2c1N[C@@H]1[C@@H]2CC3C[C@H]1C[C@@](O)(C3)C2,,"Japanese, normal hepatic function","oral, 150 mg single dose, range of means",3.3 to 18.4 h
CC[C@H](C)[C@H](N)C(=O)OC[C@H]1O[C@@H](n2cc(F)c(=O)[nH]c2=O)C[C@@H]1O,,human small intestine homogenate,"pH 7.4, 37 °C, protein 1000 µg/mL",0.168 ± 0.00667 h
O=C(COCc1cccnc1)C12CC3CC(CC(C3)C1)C2,,human liver microsomes,"37 °C, added: NADPH",> 2 h
CCOc1cc([C@@H](CS(C)(=O)=O)N2C(=O)c3cccc(NC(C)=O)c3C2=O)ccc1O[C@@H]1O[C@H](C(=O)O)[C@@H](O)[C@H](O)[C@H]1O,,"severe renal impairment patients, plasma","oral, 30 mg of apremilast",29.7 h
COc1ccc(-n2nc(C(N)=O)c3c2C(=O)N(c2ccc(N4CCCCC4=O)cc2)CC3)cc1,,healthy Chinese subjects,"oral, 10 mg single and multiple",~11 h
N=C(Nc1ccc(OCCCCCCCCCCn2ccnc2)cc1)c1ccccn1,LC-MS,human liver microsomes,3 µM,0.867 to 1.13 h
COc1ccc2c3c1O[C@H]1C[C@@H](OC(=O)c4ccccc4)C=C[C@@]31CCN(C)C2,,"healthy young men, plasma","intranasal, 5.5 mg, single dose",1.07 h
CN1C(=O)[C@@H](NC(=O)c2nnc(Cc3ccccc3)[nH]2)COc2ccccc21,,"healthy men, plasma","oral, 60 mg once daily, day 14, geometric mean",3.97 h
O=C(CCc1ccccc1)N[C@H]1COC1=O,,"phosphate buffer, 10% MeCN","1 µM, pH 5.0, 37 °C",0.75 h
Nc1nc(NC2CC2)c2ncn([C@H]3C=C[C@@H](CO)C3)c2n1,,"HIV-infected children and adolescents, Tanner stage 1-2, plasma","oral, 8 mg/kg",1.3 h
CC(C)[C@@H](N)C(=O)OC[C@H]1O[C@@H](n2cc(F)c(=O)[nH]c2=O)C[C@@H]1O,,human small intestine homogenate,"pH 7.4, 37 °C, protein 1000 µg/mL",2.91 ± 1.07 h
CC(C)(c1ccc(O)cc1)c1ccc(O)cc1,GC-MS,"exposure tank water with snails, reconstituted water","1000 ng/L nominal, 20 °C",3.67 h
COc1ccc(F)cc1CCC1CCC(CCNCCCCCN2N=C(c3ccc(OC)c(OC)c3)[C@H]3CC=CC[C@H]3C2=O)O1 (stereo partly shown),,human liver microsomes,"40 µM, pH 7.4, 37 °C, added: NADPH",> 1 h
COc1cc(OC)c(/C=C/S(=O)(=O)Cc2ccc(OC)c(NCC(=O)O)c2)c(OC)c1,,"cancer patients, phase I, plasma","oral, 140 mg twice daily, day 1 cycle 1",21.6 ± 36.4 h

# A few entries again:
SMILES,assay,test system,conditions,half-life
NC(=O)c1cnc2[nH]ccc2c1N[C@@H]1[C@@H]2CC3C[C@H]1C[C@@](O)(C3)C2,,"healthy Caucasian men, plasma","oral, 20 mg, single dose fasted",7.3 h
C/C=C1\NC(=O)[C@H]2CSSCC/C=C/[C@H](CC(=O)N[C@H](C(C)C)C(=O)N2)OC(=O)[C@H](C(C)C)NC1=O,,"advanced cancer patients, plasma","intravenous, 14 mg/m^2, geometric mean, added: rifampin 600 mg",8.3 h
C[C@@H](Oc1ccc(S(C)(=O)=O)cc1C(=O)N1C[C@@H]2C[C@]2(c2cc(C(F)(F)F)on2)C1)C(F)(F)F,,"healthy male volunteers, plasma","oral, 25 mg, geometric mean, added: itraconazole",222 h
COc1cc(C(=O)c2nc(-c3ccc(C)c(O)c3)ccc2F)cc(OC)c1OC,,human liver microsomes,"10 µM, pH 7.4, added: NADPH",~0.5 h
